{"data": "Measurements gathered from unrelated publications", "cell line": "human red blood cells", "note": "Protocols differ between the studies behind these lines."}
{"SMILES": "CC[C@H](C)[C@H](NC(=O)[C@H](CCCCNC(=N)N)NC(=O)[C@H](CC(N)=O)NC(=O)[C@H](CC(C)C)NC(=O)[C@H](Cc1ccccc1)NC(=O)[C@H](CCCCNC(=N)N)NC(=O)[C@H](CCCCNC(=N)N)NC(=O)[C@H](CC(C)C)NC(=O)[C@H](CC(C)C)NC(=O)[C@H](CCCCNC(=N)N)NC(=O)[C@H](CCCCNC(=N)N)NC(=O)[C@H](CC(C)C)NC(=O)CNC(C)=O)C(=O)N[C@@H](CCCCNC(=N)N)C(=O)N[C@@H](CCCCNC(=N)N)C(N)=O", "test system": "5 % erythrocyte suspension", "setting": "1 h, 37 °C", "quantity": "HC50", "result": "> 1000 µM"}
{"SMILES": "CC(C)C[C@H](NC(=O)[C@@H]1CSCC(=O)N[C@@H](CCCCN)C(=O)N[C@@H](CC(C)C)C(=O)N[C@@H](CC(C)C)C(=O)N[C@H]2CCCCNC(=O)[C@H](CC(C)C)NC(=O)[C@H](CC(C)C)NC(=O)[C@H](CCCCN)NC(=O)CSC[C@H](NC(=O)[C@H](CC(C)C)NC(=O)[C@H](CC(C)C)NC(=O)[C@H](CCCCN)NC2=O)C(=O)N[C@@H](CCCCN)C(=O)N[C@@H](CCCCN)C(=O)N[C@@H](CCCCN)C(=O)N1)C(N)=O", "setting": "4 h, pH 7.4, room temperature", "quantity": "minimal haemolytic concentration", "result": "2000 µg/mL"}
{"SMILES": "CC[C@H](C)[C@H](NC(=O)[C@H](CCCNC(=N)N)NC(=O)[C@@H](NC(=O)[C@H](CO)NC(=O)[C@@H](NC(=O)[C@@H](NC(=O)[C@H](CS)NC(=O)[C@H](CCCCN)NC(=O)[C@@H](N)CCCNC(=N)N)C(C)C)[C@@H](C)CC)C(C)C)C(=O)N[C@@H](CCCNC(=N)N)C(=O)N[C@@H](CC(N)=O)C(=O)N[C@@H](CCCNC(=N)N)C(=O)N[C@@H](CCCNC(=N)N)C(=O)N[C@@H](C)C(=O)N[C@@H](CC(N)=O)C(=O)N[C@H](C(=O)N[C@@H](CCCCN)C(=O)N[C@H](C(=O)N[C@@H](CC(C)C)C(=O)N[C@@H](CS)C(=O)N[C@@H](CC(N)=O)C(=O)O)[C@@H](C)CC)[C@@H](C)CC", "setting": "128 µg/mL, 3 h, 37 °C", "scale": "reference: Triton X-100", "quantity": "hemolysis", "result": "0.18%"}
{"SMILES": "CC[C@H](C)[C@H](NC(=O)[C@@H](CCCCN)NC(=O)[C@H](CCCCN)NC(=O)[C@H](Cc1ccccc1)NC(=O)[C@H](CC(C)C)NC(=O)[C@@H](CCCCN)NC(=O)[C@H](Cc1c[nH]c2ccccc12)NC(=O)[C@H](CCCCN)NC(C)=O)C(=O)NCC(=O)N[C@@H](C)C(=O)N[C@H](C(=O)N[C@@H](CC(C)C)C(=O)N[C@@H](CCCCN)C(=O)N[C@H](CCCCN)C(=O)N[C@@H](CC(C)C)C(N)=O)C(C)C", "setting": "64 µM, 1 h, 37 °C", "scale": "reference: Triton X-100", "quantity": "hemolysis", "result": "< 1%"}
{"SMILES": "N=C(N)NCCC[C@H](NC(=O)[C@@H](N)CCCCN)C(=O)N[C@@H](Cc1c[nH]c2ccccc12)C(=O)N[C@@H](Cc1ccc(-c2ccccc2)cc1)C(=O)N[C@@H](CCC(N)=O)C(=O)N[C@@H](Cc1c[nH]c2ccccc12)C(=O)N[C@@H](Cc1ccc(-c2ccccc2)cc1)C(=O)N[C@@H](CCCCN)C(N)=O", "assay": "haemolysis", "setting": "1 h, 37 °C", "quantity": "HC50", "result": "> 200 µM"}
{"SMILES": "CC[C@H](C)[C@H](NC(=O)[C@H](CCCCN)NC(=O)[C@@H](NC(=O)[C@H](CS)NC(=O)[C@H](CCCNC(=N)N)NC(=O)[C@H](CCCNC(=N)N)NC(=O)[C@H](CC(N)=O)NC(=O)[C@H](CCCNC(=N)N)NC(=O)[C@H](CCCNC(=N)N)NC(=O)[C@H](CS)NC(=O)[C@@H](NC(=O)[C@H](CO)NC(=O)[C@@H](NC(=O)[C@@H](NC(=O)[C@H](CS)NC(=O)[C@H](CCCCN)NC(=O)[C@@H](N)CCCNC(=N)N)C(C)C)[C@@H](C)CC)C(C)C)[C@@H](C)CC)C(=O)N[C@@H](CC(C)C)C(=O)N[C@@H](CS)C(=O)N[C@@H](CC(N)=O)C(=O)O", "setting": "128 µg/mL, 3 h, 37 °C", "scale": "reference: Triton X-100", "quantity": "hemolysis", "result": "1.13%"}
{"SMILES": "CC[C@H](C)[C@H](NC(=O)[C@H](CCCCN)NC(=O)[C@H](CCCCN)NC(=O)[C@H](Cc1ccccc1)NC(=O)[C@H](CC(C)C)NC(=O)[C@@H](CCCCN)NC(=O)[C@H](Cc1c[nH]c2ccccc12)NC(=O)[C@H](CCCCN)NC(C)=O)C(=O)NCC(=O)N[C@@H](C)C(=O)N[C@H](C(=O)N[C@@H](CC(C)C)C(=O)N[C@H](CCCCN)C(=O)N[C@H](C(=O)N[C@@H](CC(C)C)C(N)=O)C(C)C)C(C)C", "setting": "64 µM, 1 h, 37 °C", "scale": "reference: Triton X-100", "quantity": "hemolysis", "result": "< 6%"}
{"SMILES": "C[C@@H](O)[C@H](NC(=O)[C@H](CCCNC(=N)N)NC(=O)[C@H](CCCNC(=N)N)NC(=O)[C@H](CCCNC(=N)N)NC(=O)[C@@H]1CCCN1C(=O)[C@@H](N)CO)C(=O)N1CCC[C@H]1C(=O)N[C@@H](CO)C(=O)N1CCC[C@H]1C(=O)N[C@@H](CCCNC(=N)N)C(=O)N[C@@H](CCCNC(=N)N)C(=O)N[C@@H](CCCNC(=N)N)C(=O)N[C@@H](CCCNC(=N)N)C(=O)N[C@@H](CO)C(=O)N[C@@H](CCC(N)=O)C(=O)N[C@@H](CO)C(=O)N1CCC[C@H]1C(=O)N[C@@H](CCCNC(=N)N)C(=O)N[C@@H](CCCNC(=N)N)C(=O)N[C@@H](CCCNC(=N)N)C(N)=O", "setting": "24 h, pH 7.4, 37 °C, 0.25% v/v erythrocytes", "quantity": "HC50", "result": "> 100 µM"}
{"SMILES": "CC[C@H](C)[C@H](NC(=O)[C@H](Cc1ccccc1)NC(=O)[C@H](CC(=O)O)NC(=O)[C@H](CCCCN)NC(=O)[C@H](C)NC(=O)[C@H](CCCCN)NC(=O)[C@H](CC(N)=O)NC(=O)[C@H](CC(C)C)NC(=O)[C@H](Cc1c[nH]c2ccccc12)NC(=O)[C@H](CCC(=O)O)NC(=O)[C@H](CCCCN)NC(=O)[C@@H](NC(=O)CNC(=O)[C@H](C)N)[C@@H](C)O)C(=O)N[C@@H](CCCCN)C(=O)N[C@@H](CCC(=O)O)C(=O)N[C@@H](CCCCN)C(=O)NCC(=O)N[C@@H](CC(C)C)C(=O)N[C@@H](CCC(=O)O)C(=O)N[C@@H](CCSC)C(=O)N[C@@H](CC(C)C)C(=O)N[C@@H](CO)C(=O)N[C@@H](C)C(=O)N[C@@H](C)C(=O)N[C@@H](C)C(=O)N[C@@H](CC(N)=O)C(=O)N[C@@H](C)C(=O)N[C@@H](C)C(=O)N[C@@H](CC(C)C)C(=O)N[C@@H](CC(N)=O)C(=O)O", "setting": "1 h", "quantity": "HC50", "result": "> 150 µM"}
{"SMILES": "CC[C@H](C)[C@H](NC(=O)[C@H](CCCN)NC(=O)[C@H](CC(N)=O)NC(=O)[C@H](Cc1c[nH]c2ccccc12)NC(=O)[C@H](Cc1ccccc1)NC(=O)[C@H](CCCN)NC(=O)[C@H](CCCCNC(=N)N)NC(=O)[C@H](CC(C)C)NC(=O)[C@H](Cc1c[nH]c2ccccc12)NC(=O)[C@H](CCCN)NC(=O)[C@H](CCCCNC(=N)N)NC(=O)[C@H](CC(C)C)NC(=O)CNC(C)=O)C(=O)N[C@@H](CCCN)C(=O)N[C@@H](CCCCNC(=N)N)C(N)=O", "test system": "5 % erythrocyte suspension", "setting": "1 h, 37 °C", "quantity": "HC50", "result": "184 µM"}
{"SMILES": "CC(C)C[C@@H]1NC(=O)[C@H](CCCCN)NC(=O)CSC[C@@H](C(=O)N[C@@H](CCCCN)C(N)=O)NC(=O)[C@H](CC(C)C)NC(=O)[C@H](CC(C)C)NC(=O)[C@H](CC(C)C)NC(=O)[C@@H]2CSCC(=O)N[C@@H](CCCCN)C(=O)N[C@@H](CC(C)C)C(=O)N[C@@H](CCCCN)C(=O)N[C@@H](CCCCNC(=O)[C@H](CCCCN)NC1=O)C(=O)N[C@@H](CCCCN)C(=O)N[C@@H](CC(C)C)C(=O)N[C@@H](CC(C)C)C(=O)N2", "setting": "4 h, pH 7.4, room temperature", "quantity": "minimal haemolytic concentration", "result": "2000 µg/mL"}
{"SMILES": "CC[C@H](C)[C@H](NC(=O)CNC(=O)[C@H](CC(C)C)NC(=O)CNC(=O)[C@H](CCCCN)NC(=O)[C@H](CCC(=O)O)NC(=O)[C@H](CCCCN)NC(=O)[C@@H](NC(=O)[C@H](Cc1ccccc1)NC(=O)[C@H](CC(=O)O)NC(=O)[C@H](CCCCN)NC(=O)[C@H](C)NC(=O)[C@H](CCCCN)NC(=O)[C@H](CC(N)=O)NC(=O)[C@H](CC(C)C)NC(=O)[C@H](Cc1c[nH]c2ccccc12)NC(=O)[C@H](CC(=O)O)NC(=O)[C@H](CCCCN)NC(=O)[C@@H](NC(=O)CNC(=O)[C@H](C)N)[C@@H](C)O)[C@@H](C)CC)C(=O)N[C@@H](CC(C)C)C(=O)N[C@@H](CO)C(=O)N[C@@H](C)C(=O)N[C@@H](C)C(=O)N[C@@H](C)C(=O)N[C@@H](CC(N)=O)C(=O)N[C@@H](C)C(=O)N[C@@H](C)C(=O)N[C@H](C(=O)N[C@@H](CC(N)=O)C(=O)O)[C@@H](C)CC", "setting": "1 h", "quantity": "HC50", "result": "> 200 µM"}
{"SMILES": "CC[C@H](C)[C@H](NC(=O)[C@@H](NC(=O)[C@H](CS)NC(=O)[C@H](C)NC(=O)[C@H](CC(N)=O)NC(=O)[C@H](CCCNC(=N)N)NC(=O)[C@H](CCCNC(=N)N)NC(=O)[C@H](CC(N)=O)NC(=O)[C@H](CCCNC(=N)N)NC(=O)[C@H](CCCNC(=N)N)NC(=O)[C@H](C)NC(=O)[C@H](CS)NC(=O)[C@H](CC(C)C)NC(=O)[C@@H](NC(=O)[C@@H](NC(=O)[C@H](CS)NC(=O)[C@H](CCCCN)NC(=O)[C@@H](N)CCCNC(=N)N)C(C)C)[C@@H](C)CC)C(C)C)C(=O)N[C@@H](CC(C)C)C(=O)N[C@@H](CS)C(=O)N[C@@H](CCCNC(=N)N)C(=O)O", "setting": "128 µg/mL, 3 h, 37 °C", "scale": "reference: Triton X-100", "quantity": "hemolysis", "result": "6.52%"}
{"SMILES": "CC(C)C[C@H](N)C(=O)N[C@@H](Cc1c[nH]c2ccccc12)C(=O)NCC(=O)N[C@@H](CCCNC(=N)N)C(=O)N[C@@H](Cc1ccccc1)C(=O)N[C@@H](Cc1ccccc1)C(=O)N[C@@H](CCCNC(=N)N)C(=O)N[C@@H](CCCCN)C(=O)N[C@@H](Cc1ccc(-c2ccccc2)cc1)C(=O)N[C@@H](CCCCN)C(N)=O", "assay": "haemolysis", "setting": "1 h, 37 °C", "quantity": "HC50", "result": "> 200 µM"}
{"SMILES": "CC(C)C[C@H](NC(=O)[C@H](CCCCN)NC(=O)[C@H](CCCCNC(=O)[C@H](CC(C)C)NC(=O)[C@H](CCCCN)NC(=O)[C@H](CCCCNC(=O)[C@H](CC(C)C)NC(=O)[C@H](CCCCN)NC(=O)[C@H](CCCCNC(=O)[C@H](CC(C)C)NC(=O)[C@@H](N)CCCCN)NC(=O)[C@H](CC(C)C)NC(=O)[C@@H](N)CCCCN)NC(=O)[C@H](CC(C)C)NC(=O)[C@H](CCCCN)NC(=O)[C@H](CCCCNC(=O)[C@H](CC(C)C)NC(=O)[C@@H](N)CCCCN)NC(=O)[C@H](CC(C)C)NC(=O)[C@@H](N)CCCCN)NC(=O)[C@H](CC(C)C)NC(=O)[C@H](CCCCN)NC(=O)[C@H](CCCCNC(=O)[C@H](CC(C)C)NC(=O)[C@H](CCCCN)NC(=O)[C@H](CCCCNC(=O)[C@H](CC(C)C)NC(=O)[C@@H](N)CCCCN)NC(=O)[C@H](CC(C)C)NC(=O)[C@@H](N)CCCCN)NC(=O)[C@H](CC(C)C)NC(=O)[C@H](CCCCN)NC(=O)[C@H](CCCCNC(=O)[C@H](CC(C)C)NC(=O)[C@@H](N)CCCCN)NC(=O)[C@H](CC(C)C)NC(=O)[C@@H](N)CCCCN)C(N)=O", "assay": "haemolysis", "setting": "4 h, pH 7.4, 25 °C", "quantity": "minimum haemolytic concentration", "result": "1000 µg/mL"}
{"note": "A few entries again:"}
{"SMILES": "CC[C@H](C)[C@H](NC(=O)[C@H](Cc1ccccc1)NC(=O)[C@H](CC(=O)O)NC(=O)[C@H](CCCCN)NC(=O)[C@H](C)NC(=O)[C@H](CCCCN)NC(=O)[C@H](CC(N)=O)NC(=O)[C@H](CC(C)C)NC(=O)[C@H](Cc1c[nH]c2ccccc12)NC(=O)[C@H](CCC(=O)O)NC(=O)[C@H](CCCCN)NC(=O)[C@@H](NC(=O)CNC(=O)[C@H](C)N)[C@@H](C)O)C(=O)N[C@@H](CCCCN)C(=O)N[C@@H](CCC(=O)O)C(=O)N[C@@H](CCCCN)C(=O)NCC(=O)N[C@@H](CC(C)C)C(=O)N[C@@H](CCC(=O)O)C(=O)N[C@@H](CCSC)C(=O)N[C@@H](CC(C)C)C(=O)N[C@@H](CO)C(=O)N[C@@H](C)C(=O)N[C@@H](C)C(=O)N[C@@H](C)C(=O)N[C@@H](CC(N)=O)C(=O)N[C@@H](C)C(=O)N[C@@H](C)C(=O)N[C@@H](CC(C)C)C(=O)N[C@@H](CC(N)=O)C(=O)O", "setting": "1 h", "quantity": "HC50", "result": "> 150 µM"}
